Published values of several laboratories.
Each numbered part is a random draw from the data of one study; scales do not carry over between parts. Substitutions count along the parent as printed.
UniProt P50750, sequence (whole entry, looked up): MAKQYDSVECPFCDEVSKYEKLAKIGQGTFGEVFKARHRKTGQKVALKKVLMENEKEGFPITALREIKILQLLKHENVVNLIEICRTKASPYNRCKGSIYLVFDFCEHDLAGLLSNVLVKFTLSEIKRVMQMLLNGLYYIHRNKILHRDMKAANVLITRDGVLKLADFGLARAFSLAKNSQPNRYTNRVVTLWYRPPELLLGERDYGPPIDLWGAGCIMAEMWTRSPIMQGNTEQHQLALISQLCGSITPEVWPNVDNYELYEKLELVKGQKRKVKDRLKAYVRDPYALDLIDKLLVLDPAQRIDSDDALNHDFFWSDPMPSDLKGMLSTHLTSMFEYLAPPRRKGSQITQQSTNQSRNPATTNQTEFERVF

Sample 1 — target: vanadate, free oxyanion; method: microfluidic competitive inhibition; sample: in vitro, cell-free expressed; tested at: not given; direction: lower = stronger binding
Notes: derived from inhibition constants, unchanged parent 676 nM
Parent: PafA, mature enzyme, eGFP fusion (Elizabethkingia meningoseptica, UniProt Q9KJX5); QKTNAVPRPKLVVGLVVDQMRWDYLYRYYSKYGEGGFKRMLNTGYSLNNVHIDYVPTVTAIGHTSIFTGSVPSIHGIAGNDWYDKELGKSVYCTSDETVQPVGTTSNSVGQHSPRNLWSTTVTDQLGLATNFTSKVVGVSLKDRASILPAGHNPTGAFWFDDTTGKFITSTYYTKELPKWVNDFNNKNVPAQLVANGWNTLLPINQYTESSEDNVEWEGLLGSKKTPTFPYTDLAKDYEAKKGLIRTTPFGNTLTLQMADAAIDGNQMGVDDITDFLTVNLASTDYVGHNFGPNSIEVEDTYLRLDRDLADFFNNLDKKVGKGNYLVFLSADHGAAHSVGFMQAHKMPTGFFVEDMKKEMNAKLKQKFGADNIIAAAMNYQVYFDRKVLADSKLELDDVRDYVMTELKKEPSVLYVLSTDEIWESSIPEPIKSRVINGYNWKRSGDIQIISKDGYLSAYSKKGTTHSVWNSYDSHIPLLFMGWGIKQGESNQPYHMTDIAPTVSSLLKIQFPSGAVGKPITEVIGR
Change	oxyanion analog dissociation constant
G36A	1.13 µM
P227V	625 nM
L221G	816 nM
K38V	520 nM
I447G	1.04 µM
Y459V	714 nM
G35A	681 nM
A60G	1.05 µM

Sample 2 — read-out: binding; method: phage display NGS; form: peptide; baseline: input library
Target: UDP-N-acetylglucosamine--peptide N-acetylglucosaminyltransferase 110 kDa subunit (OGT, Homo sapiens, UniProt O15294)
UniProt O15294, sequence (whole entry, looked up): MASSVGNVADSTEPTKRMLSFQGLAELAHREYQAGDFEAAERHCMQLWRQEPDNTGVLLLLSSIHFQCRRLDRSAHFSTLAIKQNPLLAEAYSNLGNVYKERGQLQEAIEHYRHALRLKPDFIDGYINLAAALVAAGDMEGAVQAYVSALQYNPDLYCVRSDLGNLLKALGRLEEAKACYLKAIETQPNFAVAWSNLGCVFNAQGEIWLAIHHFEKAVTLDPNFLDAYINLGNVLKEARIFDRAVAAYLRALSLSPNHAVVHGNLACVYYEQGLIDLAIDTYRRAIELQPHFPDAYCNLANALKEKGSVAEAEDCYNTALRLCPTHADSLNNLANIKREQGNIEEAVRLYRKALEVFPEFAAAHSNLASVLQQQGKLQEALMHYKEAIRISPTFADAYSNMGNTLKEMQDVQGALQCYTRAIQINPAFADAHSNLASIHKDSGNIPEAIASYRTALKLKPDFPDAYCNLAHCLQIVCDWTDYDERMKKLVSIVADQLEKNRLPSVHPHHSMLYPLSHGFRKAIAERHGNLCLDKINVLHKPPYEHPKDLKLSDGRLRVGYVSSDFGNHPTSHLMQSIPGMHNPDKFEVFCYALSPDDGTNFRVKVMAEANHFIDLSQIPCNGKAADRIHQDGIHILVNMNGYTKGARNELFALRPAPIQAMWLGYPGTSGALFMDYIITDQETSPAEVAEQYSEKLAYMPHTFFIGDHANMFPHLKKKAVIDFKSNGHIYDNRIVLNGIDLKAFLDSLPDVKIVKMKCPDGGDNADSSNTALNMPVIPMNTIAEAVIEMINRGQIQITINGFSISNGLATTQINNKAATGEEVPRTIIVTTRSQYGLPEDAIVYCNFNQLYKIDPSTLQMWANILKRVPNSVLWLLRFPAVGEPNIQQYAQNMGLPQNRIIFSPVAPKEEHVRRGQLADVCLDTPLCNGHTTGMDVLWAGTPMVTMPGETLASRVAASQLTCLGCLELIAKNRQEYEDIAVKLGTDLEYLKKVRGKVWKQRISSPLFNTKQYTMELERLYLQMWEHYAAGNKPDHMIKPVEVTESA
Molecule	minimum log2 enrichment ratio
HVDTWHMSHHNYTH	2.79
QLFPPVYIMKLDSQ	3.61
WMQHATHDTHNIILV	3.19
FNSPFMPVYPITFTN	3.67
FMPMYEIKYAKREDN	4.33
HVFHDQQSLLHMDKH	3.28
QHSQHVHFTHRGEGH	2.57
QQLTQYKPFYQIKPV	3.47

Sample 3 — target: CCNB1, cyclin fold, Cln2 fusion (human); method: yeast growth competition, sequencing; sample: yeast; notes: weak parent motif; baseline: not given; direction: higher = stronger binding; parent: viral docking peptide; PGASRRLFGSSAD
Change	normalised enrichment score
S10A	-0.0711
G2A	0.808
L7A	0.251
S11A	0.65
G9A	1.11
R5K	-0.126
D13A	1.06

Other studies, line by line
Structure (SMILES)	target	read-out	mode	tested at	baseline	measurement	value
N/C(=N\[N+](=O)[O-])N/N=C\c1ccc(-c2cccc([N+](=O)[O-])c2)o1	Cyclin-dependent kinase 9, with cyclin T1 (CDK9, Homo sapiens, UniProt P50750)	enzyme activity	inhibitor	0.5 µM	control	remaining activity	109%

Repeated from above (sample 1):
Change	oxyanion analog dissociation constant
K38V	520 nM
A60G	1.05 µM
